Experimental data from different studies.
Each numbered part is a random draw from the data of one study; scales do not carry over between parts. Changes are numbered by the printed parent chain.

Set 1 — method: protein-binding microarray; molecule type: hairpin DNA; sample: in vitro; tested at: not given; baseline: not given; reading: higher = stronger binding; endpoint: median fluorescence
Target: Runt-related transcription factor 1, full length (RUNX1, Homo sapiens, UniProt Q01196-8, residues 1-480)
Notes: whole hairpin DNA, median over replicate spots
CTCAGTTCTGTTGGCTGGACTCCTGTCCAGCCAACAGAACTGAGACACTC: 1690 a.u.
GAGGCCTGTCGCCGTTGGCCTCCTGGCCAACGGCGACAGGCCTCACACTC (5mC at 13 31): 1900 a.u.
GAGGCCTCGTGCGGTTGGCCTCCTGGCCAACCGCACGAGGCCTCACACTC (5mC at 8): 2920 a.u.
GAGGCCCAACCGCAACAGCCTCCTGGCTGTTGCGGTTGGGCCTCACACTC (5mC at 7): 5610 a.u.
CTCAGTTCTGTGCGCTGGACTCCTGTCCAGCGCACAGAACTGAGACACTC: 1700 a.u.
GAGGCCTGTCGCGGTTTGCCTCCTGGCAAACCGCGACAGGCCTCACACTC: 3480 a.u.
CTCAGGTCTGTGGGCTGGACTCCTGTCCAGCCCACAGACCTGAGACACTC: 1960 a.u.
GAGGCCTGTTGCCGTTGGCCTCCTGGCCAACGGCAACAGGCCTCACACTC: 1640 a.u.

Set 2 — method: RNA Bind-n-Seq; molecule type: RNA; sample: in vitro; tested at: 20 nM; notes: 6-mer, flanks averaged, single round; together with: 150 mM KCl; baseline: input library; reading: higher = stronger binding; endpoint: 6-mer enrichment (R)
Target: TAR DNA-binding protein 43, full length, His tag (TARDBP, Homo sapiens, UniProt Q13148, residues 1-414)
GGUUCC: 0.802
CGCCUG: 0.777
UACUUC: 0.535
CUGGUC: 0.729
ACGUCG: 0.86
UCUACC: 0.553
GGCGCA: 1.73
UCAACA: 0.586

Set 3 — target: inorganic phosphate, free oxyanion; method: microfluidic competitive inhibition; sample: in vitro, cell-free expressed; tested at: not given; reading: lower = stronger binding; endpoint: phosphate dissociation constant
Notes: derived from inhibition constants, unchanged parent 615000 nM
Starting sequence: PafA, mature enzyme, eGFP fusion (Elizabethkingia meningoseptica, UniProt Q9KJX5); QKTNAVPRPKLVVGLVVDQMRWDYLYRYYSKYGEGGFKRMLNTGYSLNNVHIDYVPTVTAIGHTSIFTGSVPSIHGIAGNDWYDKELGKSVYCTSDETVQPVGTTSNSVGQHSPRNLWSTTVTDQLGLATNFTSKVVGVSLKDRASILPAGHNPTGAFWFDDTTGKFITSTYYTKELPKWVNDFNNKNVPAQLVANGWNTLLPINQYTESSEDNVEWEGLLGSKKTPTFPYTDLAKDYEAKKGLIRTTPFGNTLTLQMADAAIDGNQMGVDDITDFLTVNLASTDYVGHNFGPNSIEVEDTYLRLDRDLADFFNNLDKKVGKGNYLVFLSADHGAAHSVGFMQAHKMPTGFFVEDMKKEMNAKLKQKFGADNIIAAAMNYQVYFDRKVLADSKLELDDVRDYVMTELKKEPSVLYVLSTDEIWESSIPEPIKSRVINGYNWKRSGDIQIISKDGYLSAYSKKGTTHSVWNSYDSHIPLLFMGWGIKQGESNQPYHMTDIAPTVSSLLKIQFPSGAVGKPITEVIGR
E216V: 638 µM
R115G: 589 µM
E354V: 558 µM
M342V: 637 µM
K10V: 537 µM
T130V: 556 µM

Set 4 — target: CCND1, cyclin fold, Cln2 fusion (human); method: yeast growth competition, sequencing; sample: yeast; notes: strong parent motif; baseline: not given; reading: higher = stronger binding; endpoint: normalised enrichment score; starting sequence: viral docking peptide; KGVKRKLFAEDSS
G2K: 2.02
K6F: 0.064
A9C: 1.3
A9W: 0.101
K4T: 0.267

Repeated from above (set 2):
UACUUC: 0.535
UCUACC: 0.553
